Measurements collected from several papers.
Protocols differ between the studies behind these lines. ± marks the error that the study gave.
DNA polymerase catalytic subunit: DNA polymerase catalytic subunit (Human cytomegalovirus, UniProt P08546)
Sequence of UniProt P08546 (whole entry, looked up): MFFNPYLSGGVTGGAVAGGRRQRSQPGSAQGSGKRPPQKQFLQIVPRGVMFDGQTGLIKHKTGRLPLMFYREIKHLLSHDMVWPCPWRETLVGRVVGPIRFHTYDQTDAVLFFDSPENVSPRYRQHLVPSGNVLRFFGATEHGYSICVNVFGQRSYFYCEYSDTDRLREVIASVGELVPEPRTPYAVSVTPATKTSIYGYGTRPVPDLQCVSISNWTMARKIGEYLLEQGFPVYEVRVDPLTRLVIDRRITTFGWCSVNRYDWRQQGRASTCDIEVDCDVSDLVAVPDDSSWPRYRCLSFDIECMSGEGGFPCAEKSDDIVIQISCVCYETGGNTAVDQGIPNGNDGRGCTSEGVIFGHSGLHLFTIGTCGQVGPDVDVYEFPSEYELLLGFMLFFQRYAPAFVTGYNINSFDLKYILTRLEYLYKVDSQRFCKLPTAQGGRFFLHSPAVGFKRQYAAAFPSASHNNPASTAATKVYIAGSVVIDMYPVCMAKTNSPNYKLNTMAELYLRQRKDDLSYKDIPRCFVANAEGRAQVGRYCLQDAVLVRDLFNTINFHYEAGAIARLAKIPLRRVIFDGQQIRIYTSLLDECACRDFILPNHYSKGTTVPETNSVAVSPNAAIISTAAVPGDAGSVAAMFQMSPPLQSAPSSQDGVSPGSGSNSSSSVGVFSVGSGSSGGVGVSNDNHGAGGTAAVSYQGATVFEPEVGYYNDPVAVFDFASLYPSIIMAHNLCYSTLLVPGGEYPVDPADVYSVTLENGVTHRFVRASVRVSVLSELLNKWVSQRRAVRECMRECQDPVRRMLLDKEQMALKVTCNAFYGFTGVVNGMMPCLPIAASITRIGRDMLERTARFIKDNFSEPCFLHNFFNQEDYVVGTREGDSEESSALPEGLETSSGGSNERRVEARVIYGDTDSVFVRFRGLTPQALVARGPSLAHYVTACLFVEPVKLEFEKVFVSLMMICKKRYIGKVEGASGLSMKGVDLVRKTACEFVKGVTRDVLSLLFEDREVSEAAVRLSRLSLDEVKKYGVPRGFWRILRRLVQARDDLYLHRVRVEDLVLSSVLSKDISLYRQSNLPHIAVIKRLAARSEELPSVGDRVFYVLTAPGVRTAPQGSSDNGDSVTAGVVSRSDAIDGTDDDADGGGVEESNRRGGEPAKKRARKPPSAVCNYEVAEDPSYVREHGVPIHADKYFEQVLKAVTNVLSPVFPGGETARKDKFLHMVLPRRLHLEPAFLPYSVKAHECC
MMP13: Collagenase 3 (MMP13, Homo sapiens, UniProt P45452)
CCR1: C-C chemokine receptor type 1 (CCR1, Homo sapiens, UniProt P32246)
Sequence of UniProt P32246 (whole entry, looked up): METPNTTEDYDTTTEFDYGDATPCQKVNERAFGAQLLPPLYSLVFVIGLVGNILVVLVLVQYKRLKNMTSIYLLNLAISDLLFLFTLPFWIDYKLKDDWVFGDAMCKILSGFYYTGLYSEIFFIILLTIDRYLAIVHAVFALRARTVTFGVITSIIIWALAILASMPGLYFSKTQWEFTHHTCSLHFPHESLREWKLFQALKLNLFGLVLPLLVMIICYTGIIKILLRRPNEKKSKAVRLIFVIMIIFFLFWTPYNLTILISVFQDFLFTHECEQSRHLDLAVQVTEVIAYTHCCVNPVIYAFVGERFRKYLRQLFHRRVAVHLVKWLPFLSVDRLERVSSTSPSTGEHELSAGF
Grin1 with GluN2A: Glutamate receptor ionotropic, NMDA 1, with GluN2A (Grin1, Rattus norvegicus, UniProt P35439)
Sequence of UniProt Q16620 (whole entry, looked up): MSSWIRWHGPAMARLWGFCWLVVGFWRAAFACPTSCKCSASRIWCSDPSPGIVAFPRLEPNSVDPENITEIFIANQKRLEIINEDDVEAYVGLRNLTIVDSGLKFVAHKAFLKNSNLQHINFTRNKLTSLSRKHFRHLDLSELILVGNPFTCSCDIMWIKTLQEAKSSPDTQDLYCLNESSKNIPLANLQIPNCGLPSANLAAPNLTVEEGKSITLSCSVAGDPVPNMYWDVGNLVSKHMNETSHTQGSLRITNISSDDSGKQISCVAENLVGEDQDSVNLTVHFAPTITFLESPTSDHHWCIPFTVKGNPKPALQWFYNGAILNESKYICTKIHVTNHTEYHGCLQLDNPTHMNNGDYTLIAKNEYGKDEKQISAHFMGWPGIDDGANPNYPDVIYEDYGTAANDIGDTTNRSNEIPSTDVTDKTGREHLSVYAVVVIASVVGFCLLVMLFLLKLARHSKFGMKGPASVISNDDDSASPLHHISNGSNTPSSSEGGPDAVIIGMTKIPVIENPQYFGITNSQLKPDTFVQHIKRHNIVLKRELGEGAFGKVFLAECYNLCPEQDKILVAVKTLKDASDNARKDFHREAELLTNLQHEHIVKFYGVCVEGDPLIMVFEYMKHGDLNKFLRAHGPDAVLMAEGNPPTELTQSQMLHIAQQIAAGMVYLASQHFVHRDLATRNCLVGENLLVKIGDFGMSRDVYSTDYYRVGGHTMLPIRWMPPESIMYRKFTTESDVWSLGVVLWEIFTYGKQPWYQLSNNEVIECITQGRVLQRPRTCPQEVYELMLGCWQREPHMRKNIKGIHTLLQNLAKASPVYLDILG

The Hill slope of `CC1(C)CN(C(=O)Cn2c(=O)c(C(=O)NCc3ccc(Cl)cc3)cc3nccnc32)C1` is reported as 1 (DNA polymerase catalytic subunit; enzyme activity, inhibitor).
`O=C(O)CCCOc1cccc(CNC(=O)C#Cc2cn(Cc3ccc(C(=O)O)cc3)c(=O)[nH]c2=O)c1` has a Hill slope of -0.666 (MMP13; protease activity, FRET).
`O=C(C1=C(O)C(=O)N(c2ccc(Br)cc2F)C1c1cccc(Br)c1)C1CC1` (centres unmarked) gave a Hill slope of -0.5 ± 0.07 (CCR1; inverse agonist; U2OS; no agonist).
With `COc1cccc(CNC(=O)C#Cc2cn(Cc3ccc(C(=O)O)cc3)c(=O)[nH]c2=O)c1` the Hill slope was -1.08 (MMP13; protease activity, FRET).
With `C[C@H]1Oc2cc(cnc2N)-c2c(nn(C)c2C#N)CN(C)C(=O)c2ccc(F)cc21` the Hill slope was 1.61 (NTRK2 (Homo sapiens, UniProt Q16620); receptor phosphorylation; NG).
With `N[C@H](CNC(=O)c1cc(Br)c(-c2ccccc2F)s1)C(=O)O` the Hill slope was 1.43 (Glutamate receptor ionotropic, NMDA 1, with GluN2C (Grin1, Rattus norvegicus, UniProt P35439, V689I); rat; together with: glutamate 300 µM).
With `CN1CCN(c2cnc3c(cc(C(=O)NCc4ccc(Cl)cc4)c(=O)n3CC(=O)N3CC(C)(F)C3)n2)C1=O` the Hill slope was 1 (DNA polymerase catalytic subunit; enzyme activity, inhibitor; retest).
With `N[C@H](CNC(=O)c1ccc(-c2ccccc2)s1)C(=O)O` the Hill slope was 1.48 (Grin1 with GluN2A; together with: glutamate 300 µM).
For `CC1(F)CN(C(=O)Cn2c(=O)c(C(=O)NCc3ccc(Cl)cc3)cc3nc(N4CCNC4=O)cnc32)C1`, the Hill slope was 1.12 (DNA polymerase catalytic subunit; enzyme activity, inhibitor).
The Hill slope of `Cc1cc(C(=O)NC[C@@H](N)C(=O)O)sc1-c1ccccc1Br` is reported as 1.22 (Grin1 with GluN2A; together with: glutamate 300 µM).
With `CC(=O)C1=C(O)C(=O)N(c2ccc(Cl)c(C)c2)C1C1CCCCC1` (centres unmarked) the Hill slope was -0.6 ± 0.05 (CCR1; inverse agonist; U2OS; no agonist).

For quick reference, copied from above:
`O=C(C1=C(O)C(=O)N(c2ccc(Br)cc2F)C1c1cccc(Br)c1)C1CC1` (centres unmarked) gave a Hill slope of -0.5 ± 0.07 (CCR1; inverse agonist; U2OS; no agonist).
With `COc1cccc(CNC(=O)C#Cc2cn(Cc3ccc(C(=O)O)cc3)c(=O)[nH]c2=O)c1` the Hill slope was -1.08 (MMP13; protease activity, FRET).
